Assay results pooled from the literature.
Every numbered part comes from another study and shows a few of its results, in no order.

Series 1 — method: universal PBM; form: double-stranded DNA, one strand shown; sample: in vitro; tested at: not given; reading: higher = stronger binding
Target: Sal-like protein 4, full length isoform B (SALL4, Homo sapiens, UniProt Q9UJQ4-2, residues 1-616)
Notes: 8-mer, flanks averaged, mean of replicates
`CAATCCGC` has an E-score of -0.0432.
The E-score of `CCGATGGA` is reported as -0.301.
With `ACCTGCTG` the E-score was -0.0287.

Series 2 — method: RNAcompete; form: RNA; sample: in vitro; tested at: 20 nM; notes: 7-mer, probes averaged, single round; reference: mean of 7-mers; reading: higher = stronger binding
Target: PABPC1L2, full length, GST fusion (mouse, UniProt A0ABA7IW68)
Residues (chain): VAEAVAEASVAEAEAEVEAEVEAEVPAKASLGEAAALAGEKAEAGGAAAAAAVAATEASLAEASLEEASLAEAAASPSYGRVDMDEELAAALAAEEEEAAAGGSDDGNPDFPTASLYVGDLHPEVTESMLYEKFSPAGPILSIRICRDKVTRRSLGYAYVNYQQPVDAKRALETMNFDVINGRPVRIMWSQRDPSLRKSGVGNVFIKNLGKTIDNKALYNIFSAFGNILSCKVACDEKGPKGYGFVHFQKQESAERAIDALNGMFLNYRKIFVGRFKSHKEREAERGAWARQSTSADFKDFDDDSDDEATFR
The 7-mer Z-score of `GACGGGA` is reported as 0.142.
`UGAGUGA` gave a 7-mer Z-score of -0.0627.
For `UGCUGGU`, the 7-mer Z-score was -0.269.

Series 3 — method: competition protein-binding microarray; form: double-stranded DNA, one strand shown; sample: in vitro; tested at: 2 µM; with: Cbf1 competitor, 0.05 µM; reading: higher = stronger binding
Target: Phosphate system positive regulatory protein PHO4, full length, GST-tagged (PHO4, Saccharomyces cerevisiae, UniProt P07270, residues 1-312)
Notes: whole 60-bp probe, lowest competitor level
Residues (chain): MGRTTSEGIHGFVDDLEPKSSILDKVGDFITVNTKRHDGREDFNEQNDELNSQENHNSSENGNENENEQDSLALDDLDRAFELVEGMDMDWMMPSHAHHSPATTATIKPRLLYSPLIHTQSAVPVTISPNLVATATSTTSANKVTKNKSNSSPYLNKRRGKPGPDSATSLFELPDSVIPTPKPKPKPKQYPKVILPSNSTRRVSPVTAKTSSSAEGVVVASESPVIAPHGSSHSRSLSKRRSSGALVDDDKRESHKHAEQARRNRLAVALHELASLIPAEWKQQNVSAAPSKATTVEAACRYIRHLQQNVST
With `CATACCCAACCTTGAAGTGTGGGTGAAGATATTTGTGTCTTGATTCGCTTGACGCTGCTG` the fluorescence intensity was 5220 a.u.
`CAATGCTTTCCCGGCCACGTCGACATGGAACATCTTGTCTTGATTCGCTTGACGCTGCTG` has a fluorescence intensity of 4910 a.u.
The fluorescence intensity of `AAAGCGGTAATTTGACCTGTGGGTGCAGATATCTATGTCTTGATTCGCTTGACGCTGCTG` is reported as 4760 a.u.
The fluorescence intensity of `GTATATTAAAGGCTGCATGTGGCTACGTCTATTAAAGTCTTGATTCGCTTGACGCTGCTG` is reported as 11300 a.u.

Other studies, line by line
The fold induction of `PhoQ, residues 284 288 289 292 302 303 ALAMYF` is reported as 14.1 (PhoP, residues 12 14 15 18 19 SPWRL (Escherichia coli, UniProt P23836); Sort-seq, item: YFP reporter; E. coli; PhoQ-PhoP variant library, with: 10 µM Mg2+; reference: high Mg2+ state, higher = stronger signaling).

Repeated from above (series 2):
The 7-mer Z-score of `GACGGGA` is reported as 0.142.
